Assay results collected from several papers.
Parts stem from different laboratories: compare values within a part only. Changes are numbered by the printed parent chain.

Sample 1 — target: CCNA1, cyclin fold, Cln2 fusion (human); method: yeast growth competition, sequencing; sample: yeast; setting: weak parent motif; reference: not given; reading: higher = stronger binding
Starting sequence: SCAPER docking peptide (human); SNARRSLNFGGST; partner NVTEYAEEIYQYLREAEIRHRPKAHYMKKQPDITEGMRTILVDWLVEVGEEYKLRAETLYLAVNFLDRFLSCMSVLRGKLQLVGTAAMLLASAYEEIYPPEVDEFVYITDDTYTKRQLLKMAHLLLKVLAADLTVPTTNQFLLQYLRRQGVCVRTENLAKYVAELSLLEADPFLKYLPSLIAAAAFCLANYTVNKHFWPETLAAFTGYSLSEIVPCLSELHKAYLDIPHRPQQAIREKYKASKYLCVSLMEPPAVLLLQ
Substitution | normalised enrichment score
HNARRSLNFGGST [S1H] | 0.442
SNARRSLNFHGST [G10H] | 0.604
SNARRTLNFGGST [S6T] | 0.466
SNARRELNFGGST [S6E] | 0.331
SNCRRSLNFGGST [A3C] | 0.416
SNARRSLNFGIST [G11I] | 0.544
SNARRSLNFGVST [G11V] | 0.95
SNARRVLNFGGST [S6V] | 0.497
SNARRNLNFGGST [S6N] | 0.413
RNARRSLNFGGST [S1R] | 0.74
WNARRSLNFGGST [S1W] | 0.542
YNARRSLNFGGST [S1Y] | 0.588

Sample 2 — method: protein-binding microarray; form: double-stranded DNA, one strand shown; sample: in vitro; concentration: 0.8 µM; setting: whole 60-bp probe, no competitor; reading: higher = stronger binding; constant ends, left off below: … GTCTTGATTCGCTTGACGCTGCTG
Target: Centromere-binding protein 1, full length, N-terminal tag (CBF1, Saccharomyces cerevisiae, UniProt P17106, residues 1-351)
Sequence of UniProt P17106 (whole entry, looked up): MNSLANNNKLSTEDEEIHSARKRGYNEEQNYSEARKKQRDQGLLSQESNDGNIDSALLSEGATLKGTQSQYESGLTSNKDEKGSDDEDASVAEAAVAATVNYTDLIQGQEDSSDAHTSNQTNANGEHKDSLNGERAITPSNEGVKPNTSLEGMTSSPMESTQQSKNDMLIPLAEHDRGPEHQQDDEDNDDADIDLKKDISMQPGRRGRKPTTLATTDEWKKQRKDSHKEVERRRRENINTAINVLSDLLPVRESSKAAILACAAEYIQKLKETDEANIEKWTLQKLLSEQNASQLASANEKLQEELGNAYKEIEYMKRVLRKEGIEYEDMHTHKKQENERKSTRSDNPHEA
Strand | fluorescence intensity [a.u.]
CTAGCATAAAACAACCATGTGGAGTTTTTACTGTTC | 589
TGTACGAAGCTATGTCATGTTTCTATAGTAGTTAGG | 569
GAAGGATGTGCATATCACGTTCGGATCTATGTATAG | 795
GAAAAGTCAGCACGTGATCTGCTAAGAAATCCGTAG | 23300
GAAAGACGTGTCCGCCGGGTGATGAAGCTGTGATAG | 517
CTATCAGACCCTTACATCAGCAGCAGCACGTTCTTC | 628
GAATTCCAAGTGAGTCACCTCTACCGTTGGAACTAG | 487
GAATTGCATACACGTGACGGATCACAACAACCCTAG | 16200
CTAATACAGAATCTGATCATGACTATCAATCGGTTC | 608
CCTAACTACTATAGCCACGTGCTATAGCTTCGTACA | 6420

Sample 3 — method: RNA Bind-n-Seq; form: RNA; sample: in vitro; concentration: not given; reference: input RNA pool; reading: higher = stronger binding
Target: RING finger protein unkempt homolog, zinc fingers 1-6, GST-SBP tag (UNK, Homo sapiens, UniProt Q9C0B0, residues 30-357)
Sequence of UniProt Q9C0B0 (30-357, looked up): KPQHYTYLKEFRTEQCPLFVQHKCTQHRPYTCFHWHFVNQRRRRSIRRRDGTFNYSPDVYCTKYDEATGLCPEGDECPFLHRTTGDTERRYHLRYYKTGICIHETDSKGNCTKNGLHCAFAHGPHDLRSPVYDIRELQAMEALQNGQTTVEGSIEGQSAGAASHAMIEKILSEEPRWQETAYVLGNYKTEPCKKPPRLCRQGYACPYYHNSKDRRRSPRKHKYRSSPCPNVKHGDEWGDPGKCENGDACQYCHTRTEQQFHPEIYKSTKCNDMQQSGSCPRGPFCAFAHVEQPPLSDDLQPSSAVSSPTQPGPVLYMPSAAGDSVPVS
Setting: RNA with constant flanks, human and mouse sites, ends assumed
Constant ends, left off below: GGGAGUUCUACAGUCCGACGAUC … CAACAGAGGAUUGAGCAUCA
Strand | bound/input enrichment [ratio]
CUGGUCUUGGUGAACACACUUUUCUUUUUUUUUCUUUUUUCUUUUUUUUUUCCUUUUUUUUUUUUUUUUUUUUUACCCCAGACACCUCCUUUUUGUAGAAAGCCAAAUAAAAUAUAUACA | 2.64
UUCUUAUACCUGGAUUUGGAAUUGAGUAUUCUUGAAAUGCCUAUAUUUGAGGAAGAUAAAUUAGGAGUUUAGAGAGCCAUAGUAAUACACUGAACGUUUCUUGUUAAAACUGUAACCUUG | 2.73
CUGUCUUCACAUUCAUAUUCCAGAUUUAUAUUUUCUGGAGUUAAAUUUGGAUGAUUUCUAAAUUAUCACAAAGUGGGACCUCAGCAGUAGUGAUGUGUGUGUCUCAUGAGCAGUGAGCAC | 0.384
UGGGAAACAGGCAGGAAAGGCUGUGGGGUGGGGGUGGGGGACUGGUGUGGCACCGUGCAAACAAAAUGACAAAUUUCAACUCACAAUCUUUGUAAGAAAAUUGUUCCAGUUUGAAUCUUG | 0.304
CUCACUUUCUAUGAAGAAGUUACAAGUAAGCAAAUCUGUACAGCCAUGCAGACACUGUACCAGAUGCAUAAUGCUGAGCAGUACAGCAGUGUGUACGCUUCAUCCUCUUGCAGUAUGGAC | 0.44
UUUGGUAAUGAAUAAAUUCUGCUAGUGGUAUAUGUUGAUCUGAACUUACAAUGAUGGGAUAUAGAAUUGGCAGAGUGGCAGAUGUUCACAAUUGUCUACAAGUAGAUGUGCUAGACAAUG | 0.356
UGCUACUCAAAUAUUUAUGAACAGAGAGGAAAUGAGGCCACAGAAGGGAGUGGACUACUUUUAAACAGCACUGGUGACCUAAUGAAGAAAAAUUAUUUACAUAAUUUCUGUAGUCAAGUU | 0.316
ACCACUGGUGGCAUUGAUGAUAUGUAUCUCAAGUAUUUUGUGGAAGCUGGUGCCAUGGCUGUUAGGAGAGUUUUAAAACGAGACCUGAAGCAUGUUGCAAAAGCUUCUGGAGCAAGUAUC | 0.117

Mixed results
Molecule | target | test | system | conditions | how to read | endpoint | result
PhoQ, residues 284 288 289 292 302 303 SSCCRF | PhoP, residues 12 14 15 18 19 MHTVL (Escherichia coli, UniProt P23836) | Sort-seq, measured: YFP reporter | E. coli | PhoQ-PhoP variant library, together with: 10 µM Mg2+ | reference: high Mg2+ state, higher = stronger signaling | fold induction | 11.7

Repeated from above (sample 2):
Strand | fluorescence intensity [a.u.]
CTAGCATAAAACAACCATGTGGAGTTTTTACTGTTC | 589
GAAAAGTCAGCACGTGATCTGCTAAGAAATCCGTAG | 23300
